Measurements from different studies.
Protocols differ between the studies behind these lines. ± marks the error that the study gave.
Metallo-beta-lactamase type 2: Metallo-beta-lactamase type 2 (Serratia marcescens, UniProt P52699)
PDIA3: Protein disulfide-isomerase A3 (PDIA3, Homo sapiens, UniProt P30101)
Chain of UniProt P30101 (whole entry, looked up): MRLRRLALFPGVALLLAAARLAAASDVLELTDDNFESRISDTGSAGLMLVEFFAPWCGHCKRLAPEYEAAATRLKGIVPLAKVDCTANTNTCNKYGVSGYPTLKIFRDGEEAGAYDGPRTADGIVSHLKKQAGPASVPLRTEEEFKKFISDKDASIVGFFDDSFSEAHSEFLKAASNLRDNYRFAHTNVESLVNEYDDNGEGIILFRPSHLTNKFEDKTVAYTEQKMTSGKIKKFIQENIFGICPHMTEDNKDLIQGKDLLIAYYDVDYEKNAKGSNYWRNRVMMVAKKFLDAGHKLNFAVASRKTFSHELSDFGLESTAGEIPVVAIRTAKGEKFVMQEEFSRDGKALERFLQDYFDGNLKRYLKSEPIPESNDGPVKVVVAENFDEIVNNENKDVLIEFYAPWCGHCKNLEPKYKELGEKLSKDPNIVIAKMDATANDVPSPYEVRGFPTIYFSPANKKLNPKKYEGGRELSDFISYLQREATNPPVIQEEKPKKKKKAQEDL
Chain of UniProt P40261 (whole entry, looked up): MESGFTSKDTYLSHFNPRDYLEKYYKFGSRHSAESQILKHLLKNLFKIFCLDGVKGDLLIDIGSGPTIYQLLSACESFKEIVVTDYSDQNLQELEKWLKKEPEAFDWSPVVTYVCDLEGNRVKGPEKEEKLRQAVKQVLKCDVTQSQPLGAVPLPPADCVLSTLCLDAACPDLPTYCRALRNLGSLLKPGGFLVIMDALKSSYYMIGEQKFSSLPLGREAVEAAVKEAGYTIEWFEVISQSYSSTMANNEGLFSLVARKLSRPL
Chain of UniProt Q7Z5W3 (whole entry, looked up): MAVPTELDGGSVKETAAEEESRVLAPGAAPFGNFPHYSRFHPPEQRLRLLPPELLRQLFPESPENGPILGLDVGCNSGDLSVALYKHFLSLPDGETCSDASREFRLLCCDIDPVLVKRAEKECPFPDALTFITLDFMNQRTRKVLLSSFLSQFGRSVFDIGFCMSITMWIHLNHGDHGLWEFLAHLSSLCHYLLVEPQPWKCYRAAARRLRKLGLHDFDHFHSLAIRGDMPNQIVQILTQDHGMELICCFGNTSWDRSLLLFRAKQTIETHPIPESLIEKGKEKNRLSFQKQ
Chain of UniProt P68400 (whole entry, looked up): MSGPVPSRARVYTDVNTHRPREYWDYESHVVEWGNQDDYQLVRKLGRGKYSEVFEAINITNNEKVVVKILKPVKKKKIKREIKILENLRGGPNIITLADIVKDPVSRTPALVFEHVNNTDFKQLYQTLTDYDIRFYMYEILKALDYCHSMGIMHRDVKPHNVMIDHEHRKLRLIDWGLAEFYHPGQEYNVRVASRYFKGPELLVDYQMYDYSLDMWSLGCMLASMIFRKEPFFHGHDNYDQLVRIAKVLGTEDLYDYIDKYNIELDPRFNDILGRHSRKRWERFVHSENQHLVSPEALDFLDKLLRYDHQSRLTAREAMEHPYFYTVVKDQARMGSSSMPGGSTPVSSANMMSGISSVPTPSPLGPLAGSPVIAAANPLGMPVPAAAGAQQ
Chain of UniProt Q9Y253 (whole entry, looked up): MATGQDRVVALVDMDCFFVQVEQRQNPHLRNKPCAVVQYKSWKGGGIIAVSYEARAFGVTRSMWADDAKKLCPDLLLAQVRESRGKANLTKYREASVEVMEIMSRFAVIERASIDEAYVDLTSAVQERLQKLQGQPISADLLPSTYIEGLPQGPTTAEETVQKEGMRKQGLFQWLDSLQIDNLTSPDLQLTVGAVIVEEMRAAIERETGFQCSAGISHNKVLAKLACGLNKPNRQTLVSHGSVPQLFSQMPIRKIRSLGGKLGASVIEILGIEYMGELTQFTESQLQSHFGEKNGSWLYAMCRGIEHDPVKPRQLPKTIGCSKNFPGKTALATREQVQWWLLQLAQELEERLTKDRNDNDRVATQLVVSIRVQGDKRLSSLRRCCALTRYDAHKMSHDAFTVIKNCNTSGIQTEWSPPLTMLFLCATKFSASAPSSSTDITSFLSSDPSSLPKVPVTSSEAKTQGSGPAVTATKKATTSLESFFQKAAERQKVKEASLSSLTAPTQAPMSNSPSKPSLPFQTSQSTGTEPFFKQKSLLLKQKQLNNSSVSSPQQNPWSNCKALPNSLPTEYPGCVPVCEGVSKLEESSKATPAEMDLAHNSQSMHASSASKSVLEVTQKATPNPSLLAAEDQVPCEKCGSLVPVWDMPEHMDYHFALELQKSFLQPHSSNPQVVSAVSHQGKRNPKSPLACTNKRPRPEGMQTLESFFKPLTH
Chain of UniProt Q01647 (whole entry, unmodified, looked up): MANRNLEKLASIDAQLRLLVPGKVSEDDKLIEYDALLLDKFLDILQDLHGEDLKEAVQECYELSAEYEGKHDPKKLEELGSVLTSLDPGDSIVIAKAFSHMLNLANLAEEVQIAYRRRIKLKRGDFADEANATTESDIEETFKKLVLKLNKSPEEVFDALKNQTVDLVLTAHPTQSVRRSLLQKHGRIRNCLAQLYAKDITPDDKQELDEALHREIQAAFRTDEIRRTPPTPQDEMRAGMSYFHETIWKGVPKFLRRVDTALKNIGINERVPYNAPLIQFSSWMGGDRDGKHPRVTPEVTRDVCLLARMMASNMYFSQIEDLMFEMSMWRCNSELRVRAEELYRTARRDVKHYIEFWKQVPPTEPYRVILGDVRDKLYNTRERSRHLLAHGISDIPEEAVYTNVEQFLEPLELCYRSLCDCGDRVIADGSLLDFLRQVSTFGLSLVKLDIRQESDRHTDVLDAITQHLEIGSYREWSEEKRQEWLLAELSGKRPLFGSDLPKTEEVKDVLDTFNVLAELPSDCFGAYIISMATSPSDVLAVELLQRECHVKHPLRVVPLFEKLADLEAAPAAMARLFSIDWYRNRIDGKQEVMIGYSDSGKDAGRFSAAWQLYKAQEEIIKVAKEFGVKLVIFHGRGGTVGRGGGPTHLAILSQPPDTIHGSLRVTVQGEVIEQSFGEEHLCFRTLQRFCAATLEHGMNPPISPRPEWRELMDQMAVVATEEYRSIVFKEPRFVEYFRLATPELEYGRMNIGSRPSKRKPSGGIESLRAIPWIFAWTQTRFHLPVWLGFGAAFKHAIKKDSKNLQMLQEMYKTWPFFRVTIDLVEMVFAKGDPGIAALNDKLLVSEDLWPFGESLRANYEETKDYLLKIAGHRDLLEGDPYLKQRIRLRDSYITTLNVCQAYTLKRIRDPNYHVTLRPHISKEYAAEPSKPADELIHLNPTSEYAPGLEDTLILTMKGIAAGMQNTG
Chain of UniProt P11473 (whole entry, looked up): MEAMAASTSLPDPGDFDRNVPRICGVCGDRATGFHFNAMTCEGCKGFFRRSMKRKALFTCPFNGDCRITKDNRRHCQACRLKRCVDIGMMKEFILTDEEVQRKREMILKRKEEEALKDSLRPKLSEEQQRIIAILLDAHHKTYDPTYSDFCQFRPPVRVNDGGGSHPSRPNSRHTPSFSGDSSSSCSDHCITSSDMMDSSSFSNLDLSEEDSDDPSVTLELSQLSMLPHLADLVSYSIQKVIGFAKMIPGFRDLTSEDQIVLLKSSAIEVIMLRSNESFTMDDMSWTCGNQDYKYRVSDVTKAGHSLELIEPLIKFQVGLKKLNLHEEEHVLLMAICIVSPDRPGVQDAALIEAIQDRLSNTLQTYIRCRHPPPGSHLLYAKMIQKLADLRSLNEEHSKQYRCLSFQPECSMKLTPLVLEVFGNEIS
Chain of UniProt P32300 (whole entry, looked up): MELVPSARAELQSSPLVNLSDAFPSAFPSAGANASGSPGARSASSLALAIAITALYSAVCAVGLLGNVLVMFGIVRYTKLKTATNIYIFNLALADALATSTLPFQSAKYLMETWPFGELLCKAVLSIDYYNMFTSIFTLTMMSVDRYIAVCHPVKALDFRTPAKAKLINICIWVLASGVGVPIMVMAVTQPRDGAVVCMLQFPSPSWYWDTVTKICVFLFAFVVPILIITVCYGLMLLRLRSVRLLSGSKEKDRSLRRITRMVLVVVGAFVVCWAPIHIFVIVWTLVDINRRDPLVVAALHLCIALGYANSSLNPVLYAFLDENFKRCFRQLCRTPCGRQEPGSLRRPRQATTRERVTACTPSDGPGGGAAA
Chain of UniProt Q86U44 (whole entry, looked up): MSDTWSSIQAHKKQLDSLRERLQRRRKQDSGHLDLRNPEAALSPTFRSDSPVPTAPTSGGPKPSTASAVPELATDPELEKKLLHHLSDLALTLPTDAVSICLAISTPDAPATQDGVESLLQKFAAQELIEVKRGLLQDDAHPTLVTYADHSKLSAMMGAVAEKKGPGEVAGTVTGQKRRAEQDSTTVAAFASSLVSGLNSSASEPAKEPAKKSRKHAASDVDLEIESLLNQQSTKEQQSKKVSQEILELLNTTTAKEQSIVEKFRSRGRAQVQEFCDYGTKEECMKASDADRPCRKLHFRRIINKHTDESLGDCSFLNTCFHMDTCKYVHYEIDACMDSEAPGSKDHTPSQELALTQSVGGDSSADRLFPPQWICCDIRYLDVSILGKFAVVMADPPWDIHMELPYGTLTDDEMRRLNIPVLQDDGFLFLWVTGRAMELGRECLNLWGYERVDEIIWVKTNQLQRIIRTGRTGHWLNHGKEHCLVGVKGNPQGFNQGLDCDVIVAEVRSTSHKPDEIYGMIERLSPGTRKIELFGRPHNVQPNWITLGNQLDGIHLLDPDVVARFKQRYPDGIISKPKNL
Chain of UniProt P26718 (whole entry, looked up): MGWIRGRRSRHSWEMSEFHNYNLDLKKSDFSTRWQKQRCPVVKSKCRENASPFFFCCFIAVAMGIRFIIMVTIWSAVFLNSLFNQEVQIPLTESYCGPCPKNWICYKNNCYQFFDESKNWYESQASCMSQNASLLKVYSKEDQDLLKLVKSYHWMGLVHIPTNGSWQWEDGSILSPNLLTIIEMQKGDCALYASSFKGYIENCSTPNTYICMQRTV

CC(C)Cc1cc(C(=O)O)nc2[nH][nH]c(=O)c12 — IC50 (Metallo-beta-lactamase type 2; inhibitor; 10 min preincubation, with: FC5 fluorogenic substrate): 348 µM
CCn1nnc(-c2cccc(NC(=O)[C@H](C)CS)c2)n1 — IC50 (blaNDM-1 (Klebsiella pneumoniae, UniProt C7C422); enzyme activity, inhibitor, fluorescence; with preincubation): 3.02 µM
CCn1nc(C=Cc2ccccc2)nc2c(=O)n(C)c(=O)nc1-2 — IC50 (TPR (Trypanosoma brucei brucei, UniProt P39051); inhibitor, DTNB-coupled colourimetric; with: substrate at Km): 2.6 µM
CNC(=O)NCCC[C@@H]1NC(=O)[C@@H](C)NC(=O)C[C@@H](C(=O)O)NC(=O)C[C@@H](C(=O)O)NC(=O)[C@H](Cc2ccccc2)N(C)C1=O — IC50 (Endochitinase B1 (Aspergillus fumigatus, UniProt Q873X9); enzyme activity, inhibitor, fluorometric; 10 min, pH 5.5, 37 °C, with: 20 µM 4-MU-chitobiose): > 1000 µM
COC(=O)C1CN1S(=O)(=O)c1cccc(C)c1 (stereo not drawn) — IC50 (PDIA3; enzyme activity, inhibitor, absorbance; pH 7.6): > 200 µM
CN(C)CC1CCCCC1(O)c1cccc(O)c1 (stereo not drawn) — efflux ratio (human P-glycoprotein; Caco-2 TC7 monolayer; 100 µM, 3 h, apical pH 7.4, basolateral pH 7.4, with: cyclosporine A 10 µM; relative to: B-to-A over A-to-B): 1.2
CC[C@@H]1C(=O)N(C)c2cnc(Nc3ccc(C(=O)NCCCC[C@H](NC(=O)COCCOCCNC(=O)COCCOCCNC(=O)COCCOCCNC(=O)[C@@H](NC(=O)[C@H](CO)NC(=O)[C@H](Cc4cncn4CCCCCCCCc4ccccc4)NC(=O)[C@H](CC(C)C)NC(=O)[C@@H]4CCCN4C(C)=O)[C@@H](C)OP(=O)(O)O)C(N)=O)cc3OC)nc2N1C1CCCC1 — IC50 (PLK1 (Homo sapiens, UniProt P53350); enzyme activity, inhibitor): 0.0017 ± 9.7e-05 µM
Nc1ncnc2c1ncn2[C@@H]1O[C@H](CSCCNC(=O)NCC2CCCCC2)[C@@H](O)[C@H]1O — IC50 (BCDIN3D (Homo sapiens, UniProt Q7Z5W3); enzyme activity, inhibitor, radiometric): > 50 µM
CC[C@H](C)[C@@H]1NC(=O)[C@H](Cc2ccc(O)cc2)NC(=O)CSC[C@@H](C(=O)NCC(N)=O)NC(=O)[C@H](CC(C)C)NC(=O)[C@H](CCCNC(=N)N)NC(=O)[C@H](Cc2ccccc2)NC(=O)[C@H](C(C)C)NC(=O)[C@H](Cc2ccc(O)cc2)NC(=O)[C@H](CC(C)C)NC(=O)[C@H](CCCNC(=N)N)NC(=O)[C@H](Cc2ccc(O)cc2)NC(=O)[C@H](CC(N)=O)NC(=O)[C@H](CC(N)=O)NC(=O)[C@H](Cc2c[nH]c3ccccc23)NC(=O)[C@H](C(C)C)NC(=O)[C@H](Cc2ccccc2)NC(=O)[C@H](CCCNC(=N)N)NC1=O — IC50 (NNMT (Homo sapiens, UniProt P40261); enzyme activity, inhibitor, mass spectrometry): 0.674 µM
NC[C@@H]1O[C@H](O[C@H]2[C@@H](O)[C@H](O[C@@H]3[C@@H](O)[C@H](N)C[C@H](N)[C@H]3O[C@H]3O[C@H](CN)[C@@H](O)[C@H](O)[C@H]3N)O[C@@H]2Cn2cc(-c3ccc(-c4cn(C[C@H]5O[C@@H](O[C@@H]6[C@@H](O)[C@H](N)C[C@H](N)[C@H]6O[C@H]6O[C@H](CN)[C@@H](O)[C@H](O)[C@H]6N)[C@H](O)[C@@H]5O[C@H]5O[C@@H](CN)[C@@H](O)[C@H](O)[C@H]5N)nn4)cc3)nn2)[C@H](N)[C@@H](O)[C@@H]1O — IC50 (HIV-1 TAR RNA; Tat peptide binding, FRET competition; pH 7.4, 25 °C): 0.056 ± 0.006 µM
O=C1c2c(O)cc(O)cc2OC2(c3ccc(O)cc3)Oc3cc4oc(-c5ccc(O)c(O)c5)c(O)c(=O)c4c(O)c3C12O (racemic) — IC50 (mushroom tyrosinase; pH 6.8): 39.8 µM
CN(C)C(=O)[C@@H](NC(=O)c1ccccc1-c1ccc(C(F)(F)F)cc1)c1cccc(C(F)(F)F)c1 — IC50 (NKG2-D type II integral membrane protein, with ULBP6 (KLRK1, Homo sapiens, UniProt P26718)): 2.7 ± 1.1 µM
CC(C)(C)c1ccc(NC(=O)NCCC[C@H](CNCc2ccccc2)C[C@H]2O[C@@H](n3cnc4c(N)ncnc43)[C@H](O)[C@@H]2O)cc1 — IC50 (N6-adenosine-methyltransferase catalytic subunit, with METTL14 (METTL3, Homo sapiens, UniProt Q86U44); enzyme activity, inhibitor, radiometric; METTL3-METTL14 complex): > 50 µM
N=C(N)NCCC[C@@H]1NC(=O)[C@H](CCCCNC(=O)CCOCCOCCOCCOCCNC(=O)CC[C@H](NC(=O)CCOCCOCCOCCOCCNC(=O)CC[C@H](NC(=O)CN2CCN(CC(=O)O)CCN(CC(=O)O)CCN(CC(=O)O)CC2)C(=O)NCCOCCOCCOCCOCCC(=O)N[C@@H](CCC(=O)NCCOCCOCCOCCOCCC(=O)NCCCC[C@@H]2NC(=O)[C@@H](Cc3ccccc3)NC(=O)[C@H](CC(=O)O)NC(=O)CNC(=O)[C@H](CCCNC(=N)N)NC2=O)C(=O)NCCOCCOCCOCCOCCC(=O)NCCCC[C@@H]2NC(=O)[C@@H](Cc3ccccc3)NC(=O)[C@H](CC(=O)O)NC(=O)CNC(=O)[C@H](CCCNC(=N)N)NC2=O)C(=O)NCCOCCOCCOCCOCCC(=O)NCCCC[C@@H]2NC(=O)[C@@H](Cc3ccccc3)NC(=O)[C@H](CC(=O)O)NC(=O)CNC(=O)[C@H](CCCNC(=N)N)NC2=O)NC(=O)[C@@H](Cc2ccccc2)NC(=O)[C@H](CC(=O)O)NC(=O)CNC1=O [indium-111 labelled] — tissue uptake (female athymic nude mice, intestine; intravenous, 3 µCi, 24 h, U-87 MG glioma xenograft): 8.53 ± 1.88 %ID/g
CC[C@H](C)[C@H](NC(=O)[C@H](CO)NC(=O)[C@H](CC(N)=O)NC(=O)[C@H](CC(C)C)NC(=O)[C@H](Cc1ccc(O)cc1)NC(=O)[C@H](CCCCN)NC(=O)[C@H](CCCCN)NC(=O)[C@@H](NC(=O)[C@H](C)NC(=O)[C@H](CCSC)NC(=O)[C@H](CCC(N)=O)NC(=O)[C@H](CCCCN)NC(=O)[C@H](CCCN=C(N)N)NC(=O)[C@H](CC(C)C)NC(=O)[C@H](CCCN=C(N)N)NC(=O)[C@@H](NC(=O)[C@H](Cc1ccc(O)cc1)NC(=O)[C@H](CC(N)=O)NC(=O)[C@H](CC(=O)O)NC(=O)[C@@H](NC(=O)[C@H](Cc1ccccc1)NC(=O)[C@@H](NC(=O)[C@H](C)NC(=O)[C@H](CC(=O)O)NC(=O)[C@H](CO)NC(=O)[C@@H](N)Cc1c[nH]cn1)C(C)C)[C@@H](C)O)[C@@H](C)O)C(C)C)C(=O)N[C@@H](CC(C)C)C(=O)N[C@@H](CC(N)=O)C(N)=O — IC50 (ADCYAP1R1 (Homo sapiens, UniProt P41586)): > 1 µM
CC[N+](CC)(CC)CC — IC50 (Potassium channel protein kcv, two L70A, two L70Y (A250R, Paramecium bursaria Chlorella virus 1, UniProt Q84568, L70A/L70Y)): 5900 ± 400 µM
Cc1cccc(-c2nc(Nc3ccncn3)c3sccc3n2)n1 — IC50 (Cytochrome P450 2C9 (CYP2C9, Homo sapiens, UniProt P11712); inhibitor): 26 µM
Cc1cccc2c1NC(=O)C2=Cc1ccc(-c2cccc(C(=O)N3CCCN(C)CC3)c2)o1 (mixture of isomers) — IC50 (CSNK2A1 (Homo sapiens, UniProt P68400); enzyme activity, inhibitor): > 10 µM
C[C@H](CS)C(=O)Nc1ccccc1-c1nnn(C)n1 — IC50 (Metallo-beta-lactamase type 2; inhibitor; 10 min preincubation, with: FC5 substrate): 12.3 µM
N=C(N)NCCC[C@@H]1NC(=O)[C@H](CCCCNC(=O)CNC(=O)CNC(=O)CNC(=O)CC[C@H](NC(=O)CCOCCOCCOCCOCCNC(=O)CC[C@H](NC(=O)CN2CCN(CC(=O)O)CCN(CC(=O)O)CCN(CC(=O)O)CC2)C(=O)NCCOCCOCCOCCOCCC(=O)N[C@@H](CCC(=O)NCC(=O)NCC(=O)NCC(=O)NCCCC[C@@H]2NC(=O)[C@@H](Cc3ccccc3)NC(=O)[C@H](CC(=O)O)NC(=O)CNC(=O)[C@H](CCCNC(=N)N)NC2=O)C(=O)NCC(=O)NCC(=O)NCC(=O)NCCCC[C@@H]2NC(=O)[C@@H](Cc3ccccc3)NC(=O)[C@H](CC(=O)O)NC(=O)CNC(=O)[C@H](CCCNC(=N)N)NC2=O)C(=O)NCC(=O)NCC(=O)NCC(=O)NCCCC[C@@H]2NC(=O)[C@@H](Cc3ccccc3)NC(=O)[C@H](CC(=O)O)NC(=O)CNC(=O)[C@H](CCCNC(=N)N)NC2=O)NC(=O)[C@@H](Cc2ccccc2)NC(=O)[C@H](CC(=O)O)NC(=O)CNC1=O [indium-111 labelled] — tumour to tissue ratio (athymic nude mice, female, U-87 MG glioma xenograft, tumour and blood; intravenous, 1 h; relative to: tumour over blood): 80.7 ± 10.7
CC(C)[C@H](NC(=O)[C@@H]1CCCCNC(=O)NCCC[C@@H](NC(=O)[C@@H](N)Cc2ccc(O)cc2)C(=O)NCC(=O)N[C@@H](Cc2ccccc2)C(=O)N1)C(=O)N[C@H](C(=O)NCC(=O)NCCNC(N)=O)C(C)C — IC50 (Oprd1 (Mus musculus, UniProt P32300); contraction inhibition, agonist; mouse, isolated vas deferens): 0.0145 ± 0.001 µM
N#C[C@@]1(c2ccc3c(N)ncnn23)O[C@H](COP(=O)(O)OP(=O)(O)OP(=O)(O)O)[C@@H](O)[C@H]1O — IC50 (POLG (Homo sapiens, UniProt P54098); enzyme activity, inhibitor): > 200 µM
CC(C)=CCc1c(O)ccc(-c2coc3cc(O)cc(O)c3c2=O)c1O — IC50 (PDE4D (Homo sapiens, UniProt Q08499); enzyme activity, inhibitor, radiometric): 1.77 µM
Cc1cc(C)c(S(=O)(=O)N2CC2C(N)=O)c(C)c1 (stereo not drawn) — IC50 (PDIA3; enzyme activity, inhibitor, absorbance; pH 7.6): > 200 µM
CN[C@](C)(C[18F])C(=O)O — tracer uptake (SK-OV-3 tumour model; host not given, muscle; 15 min, tumour-bearing): 1.3 %ID/g
COC(=O)C=CCCC(NC(=O)c1ccncc1C(=O)O)C(=O)NC(C(=O)N1CC(=O)CC1C(=O)NC(C(=O)NC(C(N)=O)C1CCCCC1)C1CCCCC1)C(C)(C)C (stereo not drawn) — IC50 (Coagulation factor XIII A chain (Canis lupus familiaris, UniProt A0A8I3S1X8); transamidation activity, inhibitor; dog enzyme, with: dansylcadaverine into N,N-dimethylcasein): 0.024 ± 0.0006 µM
CCCCCc1cc(O)c2c(c1)OC(C)(C)C1CCC(C)=CC21 (single isomer, unassigned; (-)) — IC50 (CYP2C19 (Homo sapiens, UniProt P33261); inhibitor; HEK cell microsomes; 30 min preincubation with NADPH): 2.5 ± 1.8 µM
Cc1cc(Nc2cc(CN(C)C)cc(NC(=O)c3cc(CN(C)C)cc(Nc4ccnc5ccccc45)c3)c2)nc(N)n1 — IC50 (DNA polymerase eta (POLH, Homo sapiens, UniProt Q9Y253); enzyme activity, inhibitor): 3.9 µM
CC[C@H](C)[C@H](NC(=O)[C@H](CO)NC(=O)[C@H](CC(=O)O)NC(=O)[C@@H](N)C(C)C)C(=O)NCC(=O)N[C@@H](CCSC)C(=O)N[C@@H](CC(C)C)C(=O)N1CCC[C@H]1C(=O)N[C@@H](CCCNC(=N)N)C(=O)N[C@@H](Cc1ccccc1)C(=O)N[C@H](C(=O)N1CCC[C@H]1C(=O)O)[C@@H](C)O — IC50 (HLA-DRA/HLA-DRB3 (Homo sapiens, UniProt P01903+P79483); binding, competition binding; purified HLA-DR; 48 h, with: radiolabelled probe peptide 0.1-1 nM): > 5 µM
COc1cc(C(=O)NCCOCCOCCOCCNC(=O)c2ccc([18F])nc2)ccc1NC(=O)C1NC(CC(C)(C)C)C(C#N)(c2ccc(Cl)cc2F)C1c1cccc(Cl)c1F (stereo not drawn) — tracer uptake (SJSA-1 tumour model; host not given, stomach; 1 h, tumour-bearing): 0.75 %ID/g
O=C(O)CC(O)C(=O)O (stereo not drawn) — IC50 (PPCA1 (Flaveria pringlei, UniProt Q01647, R885G); enzyme activity, inhibitor; with: PEP at 2 × Km): 8700 µM
CC(C)C[C@H](NC(=O)[C@H](C)NC(=O)[C@H](CC(N)=O)NC(=O)[C@H](CCC(=O)O)NC(=O)[C@@H](N)CCCCN)C(=O)N[C@@H](CC(C)C)C(=O)N[C@@H](CCCNC(=N)N)C(=O)N[C@@H](Cc1ccc(O)cc1)C(=O)N[C@@H](CC(C)C)C(=O)N[C@@H](CC(C)C)C(=O)N[C@@H](CC(=O)O)C(=O)N[C@@H](CCCCN)C(=O)N[C@@H](CC(=O)O)C(=O)NCC(=O)NCC(=O)NCC(=O)N[C@@H](CCCNC(=N)N)C(=O)N[C@@H](CCCNC(=N)N)C(=O)N[C@@H](CCCNC(=N)N)C(N)=O — IC50 (Vitamin D3 receptor (VDR, Homo sapiens, UniProt P11473); reporter gene, antagonist, dual-luciferase; MCF7; 16 h, with: calcitriol 30 nM): > 30 µM
CCCC[C@H](NC(=O)CNC(=O)CNC(=O)c1ccc(NN)nc1)C(=O)N[C@H]1CC(=O)NCCCC[C@@H](C(N)=O)NC(=O)[C@H](Cc2c[nH]c3ccccc23)NC(=O)[C@H](CCCNC(=N)N)NC(=O)[C@@H](Cc2ccccc2)NC(=O)[C@H](Cc2c[nH]cn2)NC1=O [technetium-99m labelled] — uptake (C57 mouse, B16/F1 melanoma, tumor; 2 h, with: L-lysine 12 mg): 14.1 ± 2.9 %ID/g
